Measured values pooled from the literature.
Each line is one published result; not all experiments were run side by side. Several values in a cell are separate wells, animals, samples, runs or records. ± gives the spread as reported.

Compound | tested on | assay | system | setting | how to read | measurement | value
N#C[C@@H]1CC(F)(F)CN1C(=O)CNC(=O)c1ccnc2ccc(OCCCN3CCN(C(=S)Nc4ccc(C[C@H]5CN(CC(N)=O)CCN(CC(N)=O)CCN(CC(N)=O)CCN5CC(N)=O)cc4)CC3)cc12 [lead-203 labelled] |  |  | male NRG mice HEK293T-hFAP tumour, tumour | intravenous, 100 pmol, 1 h, unblocked |  | tissue uptake | 1.68 ± 0.26 %ID/g
CC(C)C[C@H](NC(=O)[C@@H](CCCCNC(=O)[C@@H](Cc1ccccc1)NC(=O)CCCCCNC(=O)CN1CCN(CC(=O)O)CCN(CC(=O)O)CCN(CC(=O)O)CC1)NC(=O)[C@H](Cc1ccc(O)cc1)NC(=O)[C@H](CO)NC(=O)[C@H](Cc1c[nH]c2ccccc12)NC(=O)[C@H](Cc1c[nH]cn1)NC(=O)[C@@H]1CCC(=O)N1)C(=O)N[C@@H](CCCNC(=N)N)C(=O)N1CCC[C@H]1C(=O)NCC(N)=O [indium-111 labelled] |  |  | female athymic nude mice, brain | intravenous, 0.037 MBq, 1 h |  | tissue uptake | 0.01 ± 0.01 %ID/g
N#C[C@@H]1CC(F)(F)CN1C(=O)CNC(=O)c1ccnc2ccc(OCCCN3CCN(C(=O)CN4CCN(CC(N)=O)CCN(CC(N)=O)CCN(CC(N)=O)CC4)CC3)cc12 [lead-203 labelled] |  |  | male NRG mice HEK293T-hFAP tumour, blood | intravenous, 100 pmol, 1 h, unblocked |  | tissue uptake | 1.59 ± 0.16 %ID/g
CCN1CCSC1=CC=CC1=[N+](CC)CCS1 | Trypanosoma cruzi | reporter mRNA translation, inhibitor, measured: Renilla luciferase mRNA | cell-free extract | concentration not given, test 3 | relative to: positive over negative control | translation activity | 95.6%
CCCC[C@H](NC(=O)COCCOCCNC(=O)CN1CCN(CC(=O)O)CCN(CC(=O)O)CC1)C(=O)N[C@H]1CC(=O)NCCCC[C@@H](C(N)=O)NC(=O)[C@H](Cc2c[nH]c3ccccc23)NC(=O)[C@H](CCCNC(=N)N)NC(=O)[C@@H](Cc2ccccc2)NC(=O)[C@H](Cc2c[nH]cn2)NC1=O [technetium-99m labelled] |  |  | C57 mouse, pancreas | intravenous, 0.037 MBq, 24 h |  | tissue uptake | 0.04 ± 0.03 %ID/g
CC(C)C[C@@H](NC(=O)[C@@H](CC(C)C)NC(=O)[C@@H](CC(=O)O)NC(=O)[C@@H](CC(C)C)NC(=O)[C@@H](CC(C)C)NC(=O)[C@@H](CC(C)C)NC(=O)[C@H](NC(=O)[C@@H](CC(=O)O)NC(=O)[C@H](NC(=O)[C@H]1CCCN1C(=O)[C@@H](Cc1ccccc1)NC(=O)[C@@H](CC(C)C)NC(=O)[C@@H](CC(C)C)NC(=O)[C@@H](CC(=O)O)NC(=O)[C@@H](CC(C)C)NC(=O)[C@@H](Cc1ccc(O)cc1)NC(=O)[C@@H](C)NC(=O)[C@@H](CCCNC(=N)N)NC(=O)[C@@H](Cc1c[nH]c2ccccc12)NC(=O)[C@H]1CCCN1C(=O)[C@@H](CC(N)=O)NC(=O)[C@@H](CCC(N)=O)NC(=O)[C@@H](CC(=O)O)NC(=O)[C@@H](CC(=O)O)NC(=O)[C@@H](CSC1CC(=O)N(CCNC(=O)CN2CCN(CC(=O)O)CCN(CC(=O)O)CC2)C1=O)NC(=O)[C@@H](C)N)[C@H](C)O)[C@H](C)O)C(=O)N[C@H](Cc1c[nH]c2ccccc12)C(=O)O (stereo partly drawn) [fluorine-18 labelled] |  |  | female C57BL/6 mice, B16-F10 melanoma, tumor | intravenous, 1 h |  | tissue uptake | 6.12 %ID/g
CCCC[C@@H]1NC(=O)[C@@H](CC(C)C)NC(=O)[C@H](CCCCNC(=O)CN2CCN(CC(=O)O)CCN(CC(=O)O)CC2)NC(=O)[C@@H](CO)NC(=O)[C@H](Cc2c[nH]cn2)NC(=O)[C@@H](Cc2c[nH]c3ccccc23)NC1=O [copper-64 labelled] |  |  | Balb/c mice, brain | intravenous, dose not given |  | tissue uptake | 0.01 %ID/g
O=C(Nc1ccon1)C12CC3CC(C1)CC(n1cnc([N+](=O)[O-])n1)(C3)C2 | Trypanosoma cruzi | reporter mRNA translation, inhibitor, measured: Renilla luciferase mRNA | cell-free extract | concentration not given, test 1 | relative to: positive over negative control | translation activity | 85.4%
Cc1cc(-c2ccc(NC(=O)CC[C@H](NC(=O)CN3CCN(CC(=O)O)CCN(CC(=O)O)CCN(CC(=O)O)CC3)C(=O)NCC(=O)N[C@@H](CC(N)=O)C(=O)N[C@H](C(=O)N[C@H](C(=O)N[C@@H](CCCNC(=N)N)C(=O)N[C@@H](CCC(N)=O)C(=O)O)C(C)C)C(C)C)c(C)c2)ccc1/N=N/c1ccc2c(S(=O)(=O)O)cc(S(=O)(=O)O)c(N)c2c1O [copper-64 labelled] |  |  | nude mice, heart | intravenous, 1 h |  | tissue uptake | 19.3 ± 2.57 %ID/g
CCCC[C@H](NC(=O)CCCCCCCNC(=O)CN1CCN(CC(=O)O)CCN(CC(=O)O)CC1)C(=O)N[C@H]1CC(=O)NCCCC[C@@H](C(N)=O)NC(=O)[C@H](Cc2c[nH]c3ccccc23)NC(=O)[C@H](CCCNC(=N)N)NC(=O)[C@@H](Cc2ccccc2)NC(=O)[C@H](Cc2c[nH]cn2)NC1=O [technetium-99m labelled] |  |  | C57 mouse, blood | intravenous, 0.037 MBq, 24 h |  | tissue uptake | 0.06 ± 0.17 %ID/g
CC(C)C[C@H](NC(=O)[C@H](Cc1ccc(O)cc1)NC(=O)[C@@H](CCCNC(=N)N)NC(=O)[C@@H](CO)NC(=O)[C@H](Cc1ccccc1)NC(=O)[C@H](CC1CCCCC1)NC(=O)[C@H](CC(=O)O)NC(=O)CN1CCN(CC(=O)O)CCN(CC(=O)O)CCN(CC(=O)O)CC1)C(=O)N[C@@H](Cc1c[nH]c2ccccc12)C(=O)N[C@@H](CO)C(=O)O [copper-64 labelled] |  |  | human, bone | concentration not given, 3 h |  | activity concentration | 328 Bq/mL and 406 Bq/mL and 261 Bq/mL and 455 Bq/mL and 626 Bq/mL and 516 Bq/mL
CCCC[C@@H]1NC(=O)[C@@H](CC(C)C)NC(=O)[C@H](CCCCNC(=O)CN2CCN(CC(=O)O)CCN(CC(=O)O)CC2)NC(=O)NNC(=O)[C@H](Cc2c[nH]cn2)NC(=O)[C@@H](Cc2c[nH]c3ccccc23)NC1=O [copper-64 labelled] |  |  | Balb/c mice, blood | intravenous, dose not given |  | tissue uptake | 0.38 ± 0.13 %ID/g
